Assay results of several laboratories.
Each line is one published result; not all experiments were run side by side. “And” joins repeats or separate records; there may be more than shown. ± marks the error that the study gave. Square brackets hold non-standard residues; d marks the D form. Ends that are not written are not given here.
Sequence of UniProt O88703 (whole entry, looked up): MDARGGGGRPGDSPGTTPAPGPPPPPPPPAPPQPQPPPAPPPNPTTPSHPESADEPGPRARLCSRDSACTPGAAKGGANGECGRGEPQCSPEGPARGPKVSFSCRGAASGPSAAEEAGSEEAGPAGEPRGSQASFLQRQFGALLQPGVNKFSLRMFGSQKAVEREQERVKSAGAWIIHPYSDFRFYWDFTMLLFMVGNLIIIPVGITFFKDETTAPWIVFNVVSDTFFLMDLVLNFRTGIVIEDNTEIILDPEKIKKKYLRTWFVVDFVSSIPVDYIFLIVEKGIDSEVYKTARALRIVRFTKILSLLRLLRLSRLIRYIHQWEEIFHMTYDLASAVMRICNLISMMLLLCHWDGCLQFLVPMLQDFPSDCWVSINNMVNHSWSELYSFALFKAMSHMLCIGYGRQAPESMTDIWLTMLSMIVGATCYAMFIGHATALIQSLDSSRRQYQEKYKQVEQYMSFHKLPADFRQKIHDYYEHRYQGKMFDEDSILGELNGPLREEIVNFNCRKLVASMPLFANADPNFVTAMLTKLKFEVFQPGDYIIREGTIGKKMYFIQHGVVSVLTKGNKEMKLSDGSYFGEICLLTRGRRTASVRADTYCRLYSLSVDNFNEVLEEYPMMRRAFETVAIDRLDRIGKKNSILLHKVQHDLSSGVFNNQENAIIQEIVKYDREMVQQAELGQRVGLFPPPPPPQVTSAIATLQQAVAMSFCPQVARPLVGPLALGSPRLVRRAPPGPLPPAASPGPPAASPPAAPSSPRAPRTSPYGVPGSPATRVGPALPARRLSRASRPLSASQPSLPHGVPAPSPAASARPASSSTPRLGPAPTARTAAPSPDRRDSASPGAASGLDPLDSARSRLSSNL
Sequence of UniProt P62577 (whole entry, looked up): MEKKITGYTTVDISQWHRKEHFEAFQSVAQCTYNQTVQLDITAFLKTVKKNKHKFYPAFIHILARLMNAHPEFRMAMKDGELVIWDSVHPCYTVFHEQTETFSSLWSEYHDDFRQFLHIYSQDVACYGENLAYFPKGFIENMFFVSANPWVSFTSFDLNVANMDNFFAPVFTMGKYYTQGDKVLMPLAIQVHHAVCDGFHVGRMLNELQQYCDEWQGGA
Sequence of UniProt Q9BYF1 (whole entry, looked up): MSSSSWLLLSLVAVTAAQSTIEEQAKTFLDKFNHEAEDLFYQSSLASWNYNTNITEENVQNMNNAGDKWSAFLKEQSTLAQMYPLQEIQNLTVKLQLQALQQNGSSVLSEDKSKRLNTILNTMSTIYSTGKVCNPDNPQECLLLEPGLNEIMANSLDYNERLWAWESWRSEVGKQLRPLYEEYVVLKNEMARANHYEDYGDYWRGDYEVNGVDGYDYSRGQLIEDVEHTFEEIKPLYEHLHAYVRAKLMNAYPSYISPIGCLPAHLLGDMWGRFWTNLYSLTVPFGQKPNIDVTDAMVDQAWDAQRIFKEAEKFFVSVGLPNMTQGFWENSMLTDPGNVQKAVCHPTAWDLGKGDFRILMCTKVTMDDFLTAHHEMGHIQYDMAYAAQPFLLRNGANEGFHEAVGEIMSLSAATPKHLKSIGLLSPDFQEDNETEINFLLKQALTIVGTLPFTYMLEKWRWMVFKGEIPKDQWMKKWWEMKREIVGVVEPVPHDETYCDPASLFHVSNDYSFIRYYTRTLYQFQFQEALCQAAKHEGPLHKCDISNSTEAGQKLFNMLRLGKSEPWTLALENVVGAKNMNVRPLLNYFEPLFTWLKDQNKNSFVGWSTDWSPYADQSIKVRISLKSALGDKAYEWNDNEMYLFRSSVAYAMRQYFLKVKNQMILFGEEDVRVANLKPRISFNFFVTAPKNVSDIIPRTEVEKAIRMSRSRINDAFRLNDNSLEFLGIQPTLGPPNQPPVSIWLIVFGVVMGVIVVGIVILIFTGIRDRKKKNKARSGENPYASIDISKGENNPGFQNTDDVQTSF
Sequence of UniProt Q08460 (whole entry, looked up): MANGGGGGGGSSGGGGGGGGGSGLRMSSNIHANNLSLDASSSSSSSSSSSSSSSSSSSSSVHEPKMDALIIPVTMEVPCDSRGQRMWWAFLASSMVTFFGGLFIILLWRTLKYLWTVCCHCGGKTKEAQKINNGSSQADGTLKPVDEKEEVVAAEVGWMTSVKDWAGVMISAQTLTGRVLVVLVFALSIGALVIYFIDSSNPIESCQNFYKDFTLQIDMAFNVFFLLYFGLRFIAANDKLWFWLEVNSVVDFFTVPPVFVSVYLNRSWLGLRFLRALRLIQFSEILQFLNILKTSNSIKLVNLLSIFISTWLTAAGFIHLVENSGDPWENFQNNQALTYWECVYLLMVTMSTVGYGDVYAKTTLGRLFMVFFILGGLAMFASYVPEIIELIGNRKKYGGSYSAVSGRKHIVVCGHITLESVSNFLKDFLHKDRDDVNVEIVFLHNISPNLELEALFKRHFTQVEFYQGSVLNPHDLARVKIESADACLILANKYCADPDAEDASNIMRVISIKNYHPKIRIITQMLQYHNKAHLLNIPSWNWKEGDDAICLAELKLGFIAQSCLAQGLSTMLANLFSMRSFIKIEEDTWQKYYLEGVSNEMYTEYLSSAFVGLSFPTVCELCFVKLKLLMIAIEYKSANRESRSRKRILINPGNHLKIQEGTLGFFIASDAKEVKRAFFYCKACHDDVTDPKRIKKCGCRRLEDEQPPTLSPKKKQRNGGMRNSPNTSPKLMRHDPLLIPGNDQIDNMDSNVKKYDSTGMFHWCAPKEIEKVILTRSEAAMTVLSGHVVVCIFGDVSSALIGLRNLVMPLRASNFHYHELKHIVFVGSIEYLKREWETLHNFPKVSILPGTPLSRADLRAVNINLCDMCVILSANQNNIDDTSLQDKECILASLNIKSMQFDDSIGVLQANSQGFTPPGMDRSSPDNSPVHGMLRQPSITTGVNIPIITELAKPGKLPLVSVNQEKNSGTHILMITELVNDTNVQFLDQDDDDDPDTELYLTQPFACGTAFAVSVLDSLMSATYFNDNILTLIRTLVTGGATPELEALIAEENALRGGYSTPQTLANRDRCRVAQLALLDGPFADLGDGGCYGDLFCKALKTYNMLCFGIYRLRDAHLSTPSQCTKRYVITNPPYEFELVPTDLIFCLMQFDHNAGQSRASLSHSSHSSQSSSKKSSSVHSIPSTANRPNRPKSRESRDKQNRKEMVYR
Sequence of UniProt Q14145 (whole entry, looked up): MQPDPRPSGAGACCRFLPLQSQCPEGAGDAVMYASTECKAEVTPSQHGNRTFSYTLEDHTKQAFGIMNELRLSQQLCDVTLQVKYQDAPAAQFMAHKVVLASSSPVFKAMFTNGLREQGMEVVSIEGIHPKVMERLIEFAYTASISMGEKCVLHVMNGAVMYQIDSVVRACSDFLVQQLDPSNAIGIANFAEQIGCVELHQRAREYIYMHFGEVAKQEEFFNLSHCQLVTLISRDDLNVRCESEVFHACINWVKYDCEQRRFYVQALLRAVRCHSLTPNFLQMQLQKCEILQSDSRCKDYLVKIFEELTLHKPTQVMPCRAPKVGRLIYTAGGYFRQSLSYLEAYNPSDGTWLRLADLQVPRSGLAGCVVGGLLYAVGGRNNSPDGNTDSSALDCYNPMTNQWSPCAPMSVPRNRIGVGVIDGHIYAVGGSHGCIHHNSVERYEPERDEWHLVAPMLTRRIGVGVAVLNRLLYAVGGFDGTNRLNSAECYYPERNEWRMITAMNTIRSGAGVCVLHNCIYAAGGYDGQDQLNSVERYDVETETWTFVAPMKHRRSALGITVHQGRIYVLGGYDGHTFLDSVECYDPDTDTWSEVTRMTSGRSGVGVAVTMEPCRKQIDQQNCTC
Sequence of UniProt P83410 (whole entry, looked up): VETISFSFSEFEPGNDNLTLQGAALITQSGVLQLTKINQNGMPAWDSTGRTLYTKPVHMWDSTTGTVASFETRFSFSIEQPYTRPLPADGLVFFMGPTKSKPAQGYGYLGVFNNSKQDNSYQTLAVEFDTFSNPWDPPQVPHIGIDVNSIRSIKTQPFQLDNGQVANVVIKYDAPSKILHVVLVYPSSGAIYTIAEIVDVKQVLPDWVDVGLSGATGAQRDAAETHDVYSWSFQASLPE
Sequence of UniProt P63096 (whole entry, looked up): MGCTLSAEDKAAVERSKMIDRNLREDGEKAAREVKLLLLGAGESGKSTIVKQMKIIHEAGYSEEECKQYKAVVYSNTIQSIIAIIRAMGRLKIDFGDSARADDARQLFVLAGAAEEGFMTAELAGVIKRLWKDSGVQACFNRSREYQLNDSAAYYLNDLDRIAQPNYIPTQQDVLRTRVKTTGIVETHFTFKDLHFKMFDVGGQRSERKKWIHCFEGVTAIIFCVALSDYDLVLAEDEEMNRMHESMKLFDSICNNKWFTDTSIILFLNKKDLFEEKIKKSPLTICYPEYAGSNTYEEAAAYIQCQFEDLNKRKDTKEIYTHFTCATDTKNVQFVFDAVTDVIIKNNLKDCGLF

Nc1ncnc2c1ncn2[C@@H]1O[C@H](COP(=O)(O)OP(=O)(O)OP(=O)(O)O)[C@@H](O)[C@H]1O  Kd (Protein kinase 9 (Plasmodium falciparum, UniProt Q8IEG4); binding, competition on cpd-sepharose; HEK293 expressed GFP fusion): 380 µM
CNc1ccccc1C(=O)O[C@H]1[C@@H](O)[C@H](n2cnc3c(N)ncnc32)O[C@@H]1COP(=O)(O)OP(=O)(O)O  Kd (Serine/threonine-protein kinase ULK4 (ULK4, Homo sapiens, UniProt Q96C45); nucleotide binding, FRET; with Mg2+): 28.6 µM
CC(=O)N[C@H]1C(O)O[C@H](CO)[C@@H](O[C@@H]2O[C@H](CO)[C@H](O)[C@H](O)[C@H]2O[C@@H]2O[C@@H](C)[C@@H](O)[C@@H](O)[C@@H]2O)[C@@H]1O (stereo partly drawn)  Kd (Lectin (Erythrina crista-galli, UniProt P83410); BLI competition; solution Kd, together with: LacNAc-biotin biosensor): 32 µM
CSCC[C@H](NC(=O)[C@H](CC(C)C)NC(=O)[C@H](Cc1ccccc1)NC(=O)[C@H](CC(=O)O)NC(=O)[C@H](Cc1ccc(O)cc1)NC(=O)[C@H](Cc1c[nH]c2ccccc12)NC(=O)[C@@H](NC(=O)[C@@H](NC(=O)[C@H](CCCNC(=N)N)NC(=O)[C@@H](N)CO)C(C)C)[C@@H](C)O)C(=O)N[C@@H](CCC(=O)O)C(=O)N[C@@H](CC(=O)O)C(=O)N[C@H](C(=O)N[C@@H](CCCCN)C(=O)N[C@@H](CO)C(=O)N[C@@H](CCCNC(=N)N)C(=O)O)[C@@H](C)O  Kd (Guanine nucleotide-binding protein G(i) subunit alpha-1, GDP-bound (GNAI1, Homo sapiens, UniProt P63096); binding, microscale thermophoresis): 0.345 ± 0.04 µM
O=C(CC1NCCCC1O)Cn1cnc2cc(Br)c(Cl)cc2c1=O (stereo not drawn)  Kd (EPRS1 (Homo sapiens, UniProt P07814); binding, MST): 0.0532 µM
CC[N+](CC)(CC)CC(=O)Nc1c(C)cccc1C  Kd (sodium channel (rat brain), batrachotoxin-modified; open channel block, blocker, planar lipid bilayer, single channel; high-Kd period, 0 mV): 25500 µM
CC1=C(/C=C/C(C)=C/C=C/C(C)=C/C=C/C=C(C)/C=C/C=C(C)/C=C/C2=C(C)C[C@@H](O)CC2(C)C)C(C)(C)C[C@H](O)C1  Kd (Albumin (ALB, Homo sapiens, UniProt P02768); binding, SPR): 1.71 µM
C#Cc1ccc2ccc3ccccc3c2c1  Kd (Cytochrome P450 2A6 (CYP2A6, Homo sapiens, UniProt P11509); binding, absorbance; pH 7.4): 3.3 µM
CCCCCCCCCC[N+](CCC)(CCC)CCC  Kd (potassium channel; steady-state block; Doryteuthis pealeii; internal application, together with: membrane potential +100 mV): 92 µM
CC#Cc1cc2ccccc2c2ccccc12  Kd (Cytochrome P450 2A13 (Homo sapiens, UniProt Q16696); binding, absorbance; pH 7.4): 6.4 µM
O=C(O)c1cc(O)c2c(c1)C(=O)c1cccc(O)c1C2=O  Kd (ACE2 (Homo sapiens, UniProt Q9BYF1); binding, SPR): 33.3 µM
cGMP  Kd (Potassium/sodium hyperpolarization-activated cyclic nucleotide-gated channel 2, C-terminal region (Hcn2, Mus musculus, UniProt O88703); binding, isothermal titration calorimetry; 25 °C, C-linker/CNBD tetramer, high-affinity event): 0.36 µM and ~0.36 µM
LKKLL[Orn]LLKKLLKLAG (Orn6; Orn = NCCC[C@H](N)C(=O)O)  Kd (HCV IRES domain IV hairpin RNA; binding, competitive fluorescence anisotropy; pH 7.4, 20 °C, together with: rhodamine-Rev probe): 0.0061 ± 0.0003 µM
CC(=O)N[C@@H](C)C(=O)N[C@@H](Cc1ccccc1)C(=O)N[C@@H](CCCNC(=N)N)C(=O)N[C@@H](C)C(=O)N[C@@H](CC(=O)O)C(=O)N[C@H](C(=O)N[C@@H](CCCNC(=N)N)C(=O)N[C@@H](C)C(=O)N[C@@H](CCC(=O)O)C(=O)N[C@@H](CCCNC(=N)N)C(=O)N[C@@H](C)C(=O)N[C@@H](CCC(=O)O)C(N)=O)C(C)C  Kd (Amyloid-beta precursor protein, Aβ40 fibrils (APP, Homo sapiens, UniProt P05067); isothermal titration calorimetry; sodium phosphate buffer; pH 8, 25 °C, peptide titrated into protein): 20.4 µM
CC(=O)N[C@H](CCCNC(=N)N)C(=O)N[C@H](C)C(=O)N[C@H](CC(=O)O)C(=O)N[C@H](C)C(=O)N[C@H](CCCNC(=N)N)C(=O)N[C@H](C)C(=O)N[C@H](CC(=O)O)C(=O)N[C@H](C)C(=O)N[C@H](CCCNC(=N)N)C(=O)N[C@H](C)C(=O)N[C@H](CC(=O)O)C(=O)N[C@H](C)C(=O)N[C@H](CCCNC(=N)N)C(=O)N[C@H](C)C(=O)N[C@H](CC(=O)O)C(=O)N[C@H](C)C(N)=O  Kd (trypsin; fluorescence polarization; 30 min, pH 7.0, together with: FITC-labelled peptide): ~0.342 µM
CCCCCCC[N+](CC)(CC)CC  Kd (potassium channel; steady-state block; Doryteuthis pealeii; internal application, together with: membrane potential +100 mV): 17.6 µM
CC(C)(O)[C@H]1O[C@H]2CC[C@@]3(C)[C@@](O)(CC[C@H]4Cc5c([nH]c6ccccc56)[C@@]43C)C2=CC1=O  Kd (Kcnma1 (Mus musculus, UniProt Q08460); BK channel current, inhibitor, inside-out patch clamp; Xenopus oocytes; closed channel affinity): 0.0119 ± 0.0023 µM
CC(=O)N[C@@H](C)C(=O)N[C@@H](CC(N)=O)C(=O)NCC(=O)N[C@@H](CC(N)=O)C(=O)N[C@@H](C)C(=O)N[C@@H](CC(N)=O)C(=O)N[C@@H](CCC(=O)O)C(=O)N[C@@H](CCC(=O)O)C(=O)N[C@@H](CC(N)=O)C(=O)NCC(=O)N[C@@H](CCC(=O)O)C(=O)N[C@@H](CCC(N)=O)C(=O)N[C@@H](CCC(=O)O)C(=O)N[C@@H](C)C(=O)N[C@@H](CC(=O)O)C(=O)N[C@@H](CC(N)=O)C(=O)N[C@@H](CCC(=O)O)C(=O)N[C@H](C(=O)N[C@@H](CC(=O)O)C(N)=O)C(C)C  Kd (KEAP1 (Homo sapiens, UniProt Q14145); binding, ITC; pH 7): 2.62 µM
C=CC1=C(C)c2cc3[nH]c(cc4nc(cc5[nH]c(cc1n2)c(C)c5C=C)C(C)=C4CCC(=O)O)c(CCC(=O)O)c3C.[Fe+3]  Kd (Kelch protein K13 (Plasmodium falciparum, UniProt Q8IDQ2, C580Y)): 0.204 ± 0.0204 µM
COC(=O)[C@H]1C(c2ccc(I)cc2)C[C@@H]2CC[C@H]1N2C (stereo partly drawn)  Kd (SLC6A3 (Homo sapiens, UniProt Q01959); binding, radioligand saturation binding; HEK293 hDAT membranes; 90 min, pH 7.4, room temperature): 0.00171 ± 0.00023 µM
CCCCCC1=C/C(=C/c2[nH]c(-c3ccc[nH]3)cc2OC)N=C1C  Kd (pre-miR-21 RNA; binding, intrinsic fluorescence; together with: 1.0 µM pre-miR-21): 0.16 ± 0.06 µM
C=CC1=C(C)c2cc3[nH]c(cc4nc(cc5[nH]c(cc1n2)c(C)c5C=C)C(C)=C4CCC(=O)O)c(CCC(=O)O)c3C.[Fe+3]  Kd (Ferrichrome-binding lipoprotein FhuD (Listeria monocytogenes, UniProt Q8Y5U6); binding, tryptophan fluorescence quenching; His tag removed): 0.711 ± 0.183 µM
O=C(N[C@H](CO)[C@H](O)c1ccc([N+](=O)[O-])cc1)C(Cl)Cl  Kd (Chloramphenicol acetyltransferase (cat, Escherichia coli, UniProt P62577); ligand, native ESI-MS; first ligand binding, gas phase, together with: 200 mM ammonium acetate): ~60 µM and 60 µM
O=C(O)CNC(=O)C(CS)Cc1ccccc1 (stereo not drawn)  Kd (Metallo-beta-lactamase type 2, di-zinc (blaNDM-1, Klebsiella pneumoniae, UniProt C7C422); binding): 1900 to 4500 µM

Some of these lines once more:
COC(=O)[C@H]1C(c2ccc(I)cc2)C[C@@H]2CC[C@H]1N2C (stereo partly drawn)  Kd (SLC6A3 (Homo sapiens, UniProt Q01959); binding, radioligand saturation binding; HEK293 hDAT membranes; 90 min, pH 7.4, room temperature): 0.00171 ± 0.00023 µM
CC(=O)N[C@H]1C(O)O[C@H](CO)[C@@H](O[C@@H]2O[C@H](CO)[C@H](O)[C@H](O)[C@H]2O[C@@H]2O[C@@H](C)[C@@H](O)[C@@H](O)[C@@H]2O)[C@@H]1O (stereo partly drawn)  Kd (Lectin (Erythrina crista-galli, UniProt P83410); BLI competition; solution Kd, together with: LacNAc-biotin biosensor): 32 µM
O=C(O)CNC(=O)C(CS)Cc1ccccc1 (stereo not drawn)  Kd (Metallo-beta-lactamase type 2, di-zinc (blaNDM-1, Klebsiella pneumoniae, UniProt C7C422); binding): 1900 to 4500 µM
CC(=O)N[C@H](CCCNC(=N)N)C(=O)N[C@H](C)C(=O)N[C@H](CC(=O)O)C(=O)N[C@H](C)C(=O)N[C@H](CCCNC(=N)N)C(=O)N[C@H](C)C(=O)N[C@H](CC(=O)O)C(=O)N[C@H](C)C(=O)N[C@H](CCCNC(=N)N)C(=O)N[C@H](C)C(=O)N[C@H](CC(=O)O)C(=O)N[C@H](C)C(=O)N[C@H](CCCNC(=N)N)C(=O)N[C@H](C)C(=O)N[C@H](CC(=O)O)C(=O)N[C@H](C)C(N)=O  Kd (trypsin; fluorescence polarization; 30 min, pH 7.0, together with: FITC-labelled peptide): ~0.342 µM
